Measured values from different studies.
± gives the spread as reported.

SMILES | assay | test system | setting | how to read | quantity | value
Cc1cn(-c2ccc3n(c2=O)CCN([C@@H](C)[C@@H]2CC[C@H](c4cc(F)c(Cl)cc4C(F)(F)F)O2)C3=O)cn1 | measured: amyloid beta 40 | human, non-elderly, cerebrospinal fluid | 200 mg once daily, 14 days, sampled 336 h | reference: placebo | change from baseline | -42.4%
Cc1cc([C@H]2C[C@H]3[C@@H](CF)SC(N)=N[C@@]3(c3ccc(F)cc3F)CO2)on1 | measured: Aβx-40 | Mus musculus wild-type, cerebrospinal fluid | subcutaneous, 100 mg/kg, 1 h |  | Aβ40 level | 0.75 ng/mL
COc1ccc(F)cc1C(=O)NCc1ccc(-c2nn([C@@H](C)C(F)(F)F)c(N)c2C(N)=O)cc1 |  | CLL/SLL patients | dose not given, at least prior PI3K inhibitor |  | overall response rate | 60%
C=CCn1c(=O)c2cnc(Nc3ccc(N4CCN(C)CC4)cc3)nc2n1-c1ccc2c(n1)[C@@](O)(CC)CC2 |  | BALB/c nude mouse, BxPC-3 xenograft | oral, 60 mg/kg, 1 d on 6 d off ×4, day 28 | reference: vehicle | tumour volume | 68.3%
COc1ccccc1[C@H](Cn1c(=O)n(C(C)(C)C(=O)O)c(=O)c2c(C)c(-c3ncco3)sc21)OC1CCOCC1 | [1-13C]acetate infusion, isotopomer analysis | overweight or obese healthy men, plasma VLDL-TG palmitate | oral, 20 mg single dose, 9 h post-dose, with: oral fructose |  | fractional hepatic DNL | 19.8 % new palmitate
CC(C)(C)c1sc2ncnc(Oc3c(F)cccc3OC(F)(F)F)c2c1-c1ccc(Cl)cc1 | paw withdrawal latency | MrgprX1 mice, CCI model | oral, 30 mg/kg, 2 h, day 14 post-CCI, heat hyperalgesia |  | antihyperalgesia | > 100%
O=C1O[C@H]([C@@H](O)CO)C(O)=C1O | FRAP |  | 160 µM |  | ferric reducing power | 68.8%
COc1ncc(-c2nc3c(n2C(C)C)[C@H](c2ccc(Cl)cc2)N(c2cc(Cl)cn(C)c2=O)C3=O)c(OC)n1 | International Working Group criteria | human acute myeloid leukemia patients | oral, 20 to 30 mg, response Unknown, low-dose |  | best overall response | 0%
OC[C@H]1O[C@H](OCC2O[C@@H](O)[C@H](O)[C@@H](O)[C@@H]2O)[C@H](O)[C@@H](O)[C@H]1O (some centres unmarked) | binding, MIDAS equilibrium dialysis LC-MS | A2AR-BRIL thermostabilized | concentration not given | reference: no-protein control | log2 fold change | -0.073
c1ccc(-c2n[nH]cc2-c2ccnc3ccccc23)nc1 | kinase binding, competitor, MIB/MS competition, measured: SCH9 | Candida albicans cell lysate | 100 nM | reference: DMSO | log2 fold change | 1.24
COc1cc2cc(-c3ccc(CC(=O)Nc4cc(C(C)(C)C(F)(F)F)no4)cn3)cnc2cc1OC | RECIST v1.1 | human other RET-altered solid tumours | 75 mg, phase I |  | best overall response PD | 60%
Nc1ccn([C@@H]2O[C@H](CO)[C@@H](O)[C@H]2O)c(=O)n1 | binding, MIDAS equilibrium dialysis LC-MS | A2AR-BRIL thermostabilized | concentration not given | reference: no-protein control | log2 fold change | -0.182
Cc1coc([C@H]2C[C@H]3[C@@H](CF)SC(N)=N[C@@]3(c3ccc(F)cc3F)CO2)n1 | measured: Aβx-40 | Mus musculus wild-type, cerebrospinal fluid | subcutaneous, 80 mg/kg, 3 h |  | Aβ40 level | 0.32 ng/mL
OCC(O)c1ccc(O)c(O)c1 (racemic) | binding, MIDAS equilibrium dialysis LC-MS | A2AR-BRIL thermostabilized | concentration not given | reference: no-protein control | log2 fold change | 0.114
N#Cc1ccc2c(c1)[C@H]1CCCN(C(=O)c3ccc4[nH]cnc4c3)[C@H]1C2 |  | T2DM patients with overweight or obesity, plasma | oral, 160 mg, day 15 (360 h), multiple dosing, mean |  | fasting plasma glucose | 148 mg/dL
C[C@H](Oc1ccc(Br)cc1-c1ccon1)C(=O)O | muscle velocity recovery cycle | human, tibialis anterior muscle | 400 mg once daily, first response latency at 15 Hz, multiple ascending dose |  | difference from placebo | -1.27%
CC(O)(CC(=O)O)CC(=O)SCCNC(=O)CCNC(=O)[C@H](O)C(C)(C)COP(=O)(O)OP(=O)(O)OC[C@H]1O[C@@H](n2cnc3c(N)ncnc32)[C@H](O)[C@@H]1OP(=O)(O)O (some centres unmarked) | binding, MIDAS equilibrium dialysis LC-MS | A2AR-BRIL thermostabilized | concentration not given | reference: no-protein control | log2 fold change | -0.338
CC[C@H]1[C@@H](O)[C@@H]2[C@H](CC[C@]3(C)[C@@H]([C@H](C)CCC(=O)O)CC[C@@H]23)[C@@]2(C)CC[C@@H](O)C[C@@H]12 |  | C57BL/6J mouse, AMLN diet NASH model | dose not given, terminal |  | plasma cholesterol | 152 ± 9 mg/dL
O=C1CCc2ccc(OCCCCN3CCN(c4cccc(Cl)c4Cl)CC3)cc2N1 | stop or switch frequency | human patients, CYP2D6 ultrarapid metabolizers | dose not given, 3 months, genetic phenotype only |  | treatment discontinuation | 33%
CC1=CC(=O)CC(C)(C)[C@@]1(O)/C=C/C(C)=C\C(=O)O | RNA-seq, measured: AT1G02205 | Arabidopsis thaliana Col seedlings | dose not given | reference: DMSO | log2 fold change | 4.2
Nc1ncnc2c1ncn2[C@H]1C[C@H](O)[C@@H](COP(=O)(O)OP(=O)(O)OP(=O)(O)O)O1 | binding, MIDAS equilibrium dialysis LC-MS | A2AR-BRIL thermostabilized | concentration not given | reference: no-protein control | log2 fold change | -0.274
CC(C)NCC(O)c1ccc(O)c(O)c1 (centres unmarked) |  | ventricular cardiomyocytes, C57BL/6 mouse | dose not given, 0.292 s |  | sarcomere length | 1.71 µm
O=P(O)(O)C(Cl)(Cl)P(=O)(O)O | immunostaining | mouse, sham-operated, meninges | dose not given, day 7 | reference: total area | GFAP-positive area | 3.21%
CN(C)C(=O)Oc1cccc([N+](C)(C)C)c1 | neuromuscular block reversal | rat | dose not given, 21 (unit not given), with: cisatracurium | reference: T1 twitch | train-of-four ratio | 97.4
Nc1nc(C(F)(F)F)nc2c1nnn2C[C@H]1CN(Cc2nccs2)CCO1 | RT-qPCR | Ocy454, mouse | 1 µM | reference: 100 nM | Wnt4 mRNA level | increased

SMILES | assay | test system | setting | how to read | quantity | value
C[C@H]1C[C@H]2CSC(N)=N[C@@]2(c2nc(NC(=O)c3ccc(OC(F)F)cn3)cs2)CO1 | measured: Aβx-40 | healthy adults, plasma | 40 mg single dose, 4 h post-dose | reference: placebo | percent change from baseline | -39.6%
O[C@H]1CCCN[C@@H]1CCCn1cnc2c(Cl)c(Cl)ccc21 | ELISA, measured: Pro-C6 | healthy human volunteers, serum | 100 mg, day 1, multiple ascending dose |  | maximum reduction | 11.6%
Nc1nc2nc[nH]c2c(=O)[nH]1 | binding, MIDAS equilibrium dialysis LC-MS | A2AR-BRIL thermostabilized | concentration not given | reference: no-protein control | log2 fold change | 0.0575
O=C(COc1ccc(Cl)cc1)NC12CC(c3nnc([C@H]4C[C@@H](OC(F)(F)F)C4)o3)(C1)C2 |  | healthy human, PBMC | oral, 45 mg single dose, day 2, 24 h post-dose, median, with: sodium arsenite ex vivo | reference: baseline | ATF4 protein change | -38.8%
CCOc1cc([C@@H](CS(C)(=O)=O)N2C(=O)c3cccc(NC(C)=O)c3C2=O)ccc1OC |  | mouse, human PBMC GvHD model, plasma | 5 mg/kg once daily, unit not given | reference: vehicle | plasma TNF-alpha difference | 0.861
Cc1noc(C)c1-c1cc(C(O)(c2ccccn2)c2ccccn2)c2nc(C3CC3)[nH]c2c1 | measured: HEXIM1 expression | human, peripheral blood | 4 mg, day 8, 1604 study |  | maximum induction | 61%
C[N+](C)(C)CCOC(N)=O | field potential oscillations | mouse, hippocampal slice CA1 stratum pyramidale | 20 µM | reference: baseline | gamma-band power | 14 fold
Cc1cc([C@H]2C[C@H]3[C@@H](C)SC(N)=N[C@@]3(c3ccc(F)cc3F)CO2)on1 | measured: Aβx-40 | Mus musculus wild-type, cerebrospinal fluid | subcutaneous, 50 mg/kg, 5 h |  | Aβ40 level | 0.26 ng/mL
CSCCNc1nc(SCCC(F)(F)F)nc2c1ncn2[C@@H]1O[C@H](COP(=O)(O)OP(=O)(O)C(Cl)(Cl)P(=O)(O)O)[C@@H](O)[C@H]1O | platelet aggregation, light transmission aggregometry | human patients, platelet-rich plasma | dose not given, 3 h, with: TRAP 15 µM |  | patients with IPA above 90% | 0%
COc1ccc2c(c1)c(CC(=O)O)c(C)n2C(=O)c1ccc(Cl)cc1 | DPPH | methanol | concentration not given, 30 min |  | DPPH radical scavenging | 20.3 ± 0.73%
COC[C@@H](c1ccc(C(F)(F)F)cc1)N1CCN(C2(C)CCN(C(=O)c3c(C)ncnc3C)CC2)C[C@@H]1C |  | HIV-1 infected patients, plasma | 5 mg, week 24, with optimized background regimen | reference: baseline | change in HIV-1 RNA | -2.06 log10 copies/mL
CO[C@H]1CC[C@H](N2C(=O)CNc3ncc(-c4ccc(C(C)(C)O)nc4)nc32)CC1 | flow cytometry | stimulated monocytes, human, blood | 45 mg single dose, 3 h, median | reference: baseline | pAKT change from baseline | -59.7%
N#Cc1ccn2c(-c3ccncc3)c(-c3ccc(F)cc3)nc2c1 | kinase binding, competitor, MIB/MS competition, measured: HSL1 | Candida albicans cell lysate | 1 µM | reference: DMSO | log2 fold change | 0.0637
O=C(O)CNC(=O)Cc1ccccc1 |  | ventricular cardiomyocytes, C57BL/6 mouse | dose not given, 0.312 s |  | sarcomere length | 1.71 µm
OC(CCN1CCCCC1)(c1ccccc1)C1CC2C=CC1C2 (centres unmarked) | resting-state EEG | healthy elderly humans | oral, 4 mg, eyes closed, LS mean |  | EEG Beta3-power Pz-O1 | 2.2 µV²
CN1CC[C@@H](c2c(O)cc(O)c3c(=O)cc(-c4ccc(C(F)(F)F)cc4Cl)oc23)[C@@H]1CO | RNA-seq | PBMC, human, AML | cycle 1 6 h | reference: pretreatment | enriched MYC-regulated genes | 41 genes
N#C/C(=C\C1CC1)c1ccncc1 |  |  | pH 7.4 |  | β-elimination rate constant | 0.058 min⁻¹
NC(=O)c1cnc2[nH]ccc2c1N[C@@H]1[C@@H]2CC3C[C@H]1C[C@@](O)(C3)C2 | flow cytometry | Japanese healthy men, blood | oral, 100 mg twice daily, 72 h after day 7 dose | reference: baseline | CD4+ effector T-cell change | 0.02%
CN(C)C(=O)c1cc2cnc(Nc3ccc(N4CCNCC4)cn3)nc2n1C1CCCC1 | RNA-seq GSEA, measured: HALLMARK_HYPOXIA | MB002 tumour | concentration not given, in vivo | reference: vehicle, direction not given | normalized enrichment score | 1.22
Cn1cc(Nc2nccc(-c3ccc4c(c3)CN(C3COC3)CC[C@H]4NC(=O)c3cn(C(C)(C)C)nn3)n2)cn1 | measured: Ethanol Degradation IV | splenic B cells, Mus musculus | 30 mg/kg, with: IgD activation | reference: vehicle, direction not given | pathway activation z-score | 2.45
N#Cc1ccc2c(-c3ccncc3)c(-c3ccc(F)cc3)nn2c1 | kinase binding, competitor, MIB/MS competition, measured: MCK1 | Candida albicans cell lysate | 1 µM | reference: DMSO | log2 fold change | -0.161
NCC(=O)O | binding, MIDAS equilibrium dialysis LC-MS | A2AR-BRIL thermostabilized | concentration not given | reference: no-protein control | log2 fold change | -0.326
Cc1n[nH]c2ccc(-c3cc(OC[C@@H](N)Cc4ccccc4)cnc3-c3ccoc3)cc12 | kinase binding, competitor, MIB/MS competition, measured: HRR25 | Candida albicans cell lysate | 10 µM | reference: DMSO | log2 fold change | -1.89
O=c1[nH]cnc2c1ncn2[C@H]1C[C@H](O)[C@@H](CO)O1 | binding, MIDAS equilibrium dialysis LC-MS | A2AR-BRIL thermostabilized | concentration not given | reference: no-protein control | log2 fold change | -0.0662
CC(C)[C@H](C(=O)Nc1ccc(C(=O)NO)cc1)c1ccccc1 | volumetric MRI | human, left parieto-occipital meningioma | dose not given, day 834 |  | tumour volume | 0.0335 cm3

Repeated from above:
SMILES | assay | test system | setting | how to read | quantity | value
O=C1CCc2ccc(OCCCCN3CCN(c4cccc(Cl)c4Cl)CC3)cc2N1 | stop or switch frequency | human patients, CYP2D6 ultrarapid metabolizers | dose not given, 3 months, genetic phenotype only |  | treatment discontinuation | 33%
CC1=CC(=O)CC(C)(C)[C@@]1(O)/C=C/C(C)=C\C(=O)O | RNA-seq, measured: AT1G02205 | Arabidopsis thaliana Col seedlings | dose not given | reference: DMSO | log2 fold change | 4.2
Nc1ncnc2c1ncn2[C@H]1C[C@H](O)[C@@H](COP(=O)(O)OP(=O)(O)OP(=O)(O)O)O1 | binding, MIDAS equilibrium dialysis LC-MS | A2AR-BRIL thermostabilized | concentration not given | reference: no-protein control | log2 fold change | -0.274
CC(C)NCC(O)c1ccc(O)c(O)c1 (centres unmarked) |  | ventricular cardiomyocytes, C57BL/6 mouse | dose not given, 0.292 s |  | sarcomere length | 1.71 µm
O=P(O)(O)C(Cl)(Cl)P(=O)(O)O | immunostaining | mouse, sham-operated, meninges | dose not given, day 7 | reference: total area | GFAP-positive area | 3.21%
CN(C)C(=O)Oc1cccc([N+](C)(C)C)c1 | neuromuscular block reversal | rat | dose not given, 21 (unit not given), with: cisatracurium | reference: T1 twitch | train-of-four ratio | 97.4
Nc1nc(C(F)(F)F)nc2c1nnn2C[C@H]1CN(Cc2nccs2)CCO1 | RT-qPCR | Ocy454, mouse | 1 µM | reference: 100 nM | Wnt4 mRNA level | increased
